{"data": "Measured values gathered from unrelated publications", "note": "A part holds a random share of what one study measured."}
{"data": "Series 1", "target": "Fragile X messenger ribonucleoprotein 1, C-terminal low-complexity region (Fmr1, Mus musculus, UniProt P35922)", "method": "RNA Bind-n-Seq", "molecule type": "RNA", "matrix": "in vitro", "concentration": "200 nM", "setting": "whole 134-nt RNA, ends assumed", "together with": "150 mM LiCl", "reference": "input library", "reading": "higher = stronger binding", "library": "7-deaza-guanosine replaces G"}
{"Sequence": "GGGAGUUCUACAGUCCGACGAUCGCAGGAAGUAAAAACAAAUGGAAAUGCUUCGGAUAGUGGCAGGGGUGGGGGUUGCGAAGGAAAGGGUGGGAUGGGAGUGGGUAAAGAGUUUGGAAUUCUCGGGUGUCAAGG", "log2 enrichment": 1.1}
{"Sequence": "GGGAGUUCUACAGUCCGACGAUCCCUGUGCUACACAUCGUAUGUACCGAAUCGGGUUUUUUUGGUUUUUUUGGUUUUUUUGGGAAAGUAUUAUGUUACGCCGUUCGGAUCUGCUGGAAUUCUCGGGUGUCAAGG", "log2 enrichment": -1.13}
{"Sequence": "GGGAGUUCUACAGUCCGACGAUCCUGUGCUACACAUCGUAUGUACCGAAUCGGGCCCCCCCGGCCCCCCCGGGCCCCCCCGGGGAAAGUAUUAUGUUACGCCGUUCGGAUCUGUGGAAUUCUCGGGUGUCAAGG", "log2 enrichment": 0.233}
{"Sequence": "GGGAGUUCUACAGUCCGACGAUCCCUGUGCUACACAUCGUAUGUACCGAAUCGGGGUUUUUUGGGGUUUUUUGGGUUUUUUGGAAAGUAUUAUGUUACGCCGUUCGGAUCUGCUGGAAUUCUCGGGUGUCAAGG", "log2 enrichment": 0.783}
{"Sequence": "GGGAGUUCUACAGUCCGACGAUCUGUGCUACACAUCGUAUGUACCGAAUCGGGGUUUUUUUGGGGAAAAAAAGGGGUUUUUGGGGAAAGUAUUAUGUUACGCCGUUCGGAUCUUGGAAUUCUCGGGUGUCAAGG", "log2 enrichment": -2.47}
{"Sequence": "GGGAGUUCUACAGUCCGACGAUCCCUGUGCUACACAUCGUAUGUACCGAAUCGGGGUUUUUUGGGUUUUUUGGGUUUUUUGGGAAAGUAUUAUGUUACGCCGUUCGGAUCUGCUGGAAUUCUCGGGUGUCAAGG", "log2 enrichment": -1.17}
{"Sequence": "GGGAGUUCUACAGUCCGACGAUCGUCCUGUGCUACACAUCGUAUGUACCGAAUCGGGUUUUUGGGUUUUUGGGGUUUUUGGAAAGUAUUAUGUUACGCCGUUCGGAUCUGCACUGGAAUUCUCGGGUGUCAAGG", "log2 enrichment": -0.729}
{"Sequence": "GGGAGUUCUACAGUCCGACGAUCGUCCUGUGCUACACAUCGUAUGUACCGAAUCAAACCCCCAAAUUUUUAAACCCCCAAAAAAGUAUUAUGUUACGCCGUUCGGAUCUGCACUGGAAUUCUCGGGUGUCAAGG", "log2 enrichment": 1.43}
{"data": "Series 2", "target": "Histone acetyltransferase KAT6A, both winged helices, GST fusion (KAT6A, Homo sapiens, UniProt Q92794, residues 1-181)", "method": "protein binding microarray", "molecule type": "double-stranded DNA, one strand shown", "matrix": "in vitro", "concentration": "not given", "setting": "8-mer, flanks averaged, mean of 2 arrays, mostly near background", "reference": "not given", "reading": "higher = stronger binding", "Residues (chain)": "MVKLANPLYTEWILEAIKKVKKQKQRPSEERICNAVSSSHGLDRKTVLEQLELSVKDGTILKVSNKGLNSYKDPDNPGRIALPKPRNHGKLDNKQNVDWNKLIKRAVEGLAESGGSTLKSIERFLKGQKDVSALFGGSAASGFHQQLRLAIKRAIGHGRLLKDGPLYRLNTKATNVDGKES"}
{"Sequence": "CCGCTAAG", "E-score": 0.272}
{"Sequence": "AAACTGTT", "E-score": 0.0098}
{"Sequence": "ATATACGG", "E-score": 0.125}
{"Sequence": "CGTTCGTA", "E-score": 0.121}
{"Sequence": "GATCTCCA", "E-score": -0.182}
{"Sequence": "ATATATTC", "E-score": 0.0223}
{"Sequence": "GAGCAATC", "E-score": 0.0555}
{"Sequence": "CCAGAGAC", "E-score": -0.111}
{"Sequence": "ATGTGAGG", "E-score": -0.119}
{"Sequence": "CTAGCGAC", "E-score": -0.0389}
{"Sequence": "GGTTCGCA", "E-score": 0.0501}
{"Sequence": "CCAGAATA", "E-score": -0.192}
{"Sequence": "ATTTTTTC", "E-score": 0.00158}
{"Sequence": "GGCTTAAC", "E-score": -0.0348}
{"Sequence": "ACCAGGGG", "E-score": -0.266}
{"Sequence": "CATATTCA", "E-score": -0.0609}
{"Sequence": "CATTCACA", "E-score": -0.28}
{"Sequence": "ACCAAAAG", "E-score": -0.0038}
{"Sequence": "CCGTGCCG", "E-score": 0.306}
{"Sequence": "CGAGTACC", "E-score": 0.0946}
{"Sequence": "ATTTGCCG", "E-score": 0.266}
{"Sequence": "ATCTCTGG", "E-score": -0.184}
{"Sequence": "ATCACGAA", "E-score": -0.0959}
{"Sequence": "CGACGTCA", "E-score": 0.135}
{"Sequence": "AGTTCTGC", "E-score": 0.12}
{"data": "Series 3", "target": "Centromere-binding protein 1, full length, N-terminal tag (CBF1, Saccharomyces cerevisiae, UniProt P17106, residues 1-351)", "method": "protein-binding microarray", "molecule type": "double-stranded DNA, one strand shown", "matrix": "in vitro", "concentration": "0.8 µM", "setting": "whole 60-bp probe, no competitor", "reading": "higher = stronger binding", "sequence of UniProt P17106 (whole entry, looked up)": "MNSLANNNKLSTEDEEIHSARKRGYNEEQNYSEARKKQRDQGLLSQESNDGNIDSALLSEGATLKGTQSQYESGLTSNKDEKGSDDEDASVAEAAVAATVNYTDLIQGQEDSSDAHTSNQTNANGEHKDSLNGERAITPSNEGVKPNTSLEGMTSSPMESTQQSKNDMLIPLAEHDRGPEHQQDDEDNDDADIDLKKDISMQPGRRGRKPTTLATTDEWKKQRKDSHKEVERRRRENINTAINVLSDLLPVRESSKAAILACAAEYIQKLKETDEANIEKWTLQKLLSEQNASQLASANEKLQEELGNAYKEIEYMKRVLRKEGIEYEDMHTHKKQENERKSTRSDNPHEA"}
{"Sequence": "CTAATTTCTTTTCATCACGTGCTATAAAAATAATTCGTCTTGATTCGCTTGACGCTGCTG", "fluorescence intensity [a.u.]": 20100}
{"Sequence": "CCTAACTACTATAATCATCATGCATAGCTTCGTACAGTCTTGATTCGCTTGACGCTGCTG", "fluorescence intensity [a.u.]": 527}
{"Sequence": "GAACTTGATTAACGTGATTATACTTTTTAAACCTAGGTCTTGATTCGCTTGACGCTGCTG", "fluorescence intensity [a.u.]": 1110}
{"Sequence": "GAAGGGGTGCGTGGGCGTGCGCTGCTCGAGGCATAGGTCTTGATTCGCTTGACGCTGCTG", "fluorescence intensity [a.u.]": 545}
{"Sequence": "CTAATTTCTCGCGAGCTGGTGATGAGCCAAATGTTCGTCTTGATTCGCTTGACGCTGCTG", "fluorescence intensity [a.u.]": 507}
{"Sequence": "CTAAAGAGTTAACTTCACGCGGGTAAATCACTTTTCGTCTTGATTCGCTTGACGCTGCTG", "fluorescence intensity [a.u.]": 534}
{"Sequence": "CTACACGTGGAGCATCATGAAAAAAACTGGTAATTCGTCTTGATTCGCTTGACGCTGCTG", "fluorescence intensity [a.u.]": 1450}
{"Sequence": "GAATTCATCGTCGATCATGATGATTATCAGCCGTAGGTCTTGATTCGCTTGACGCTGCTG", "fluorescence intensity [a.u.]": 530}
{"Sequence": "GAATTTATGATTGCTCGAATCACGTTTTTCTTGTAGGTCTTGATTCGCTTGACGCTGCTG", "fluorescence intensity [a.u.]": 2150}
{"Sequence": "CTATTAGGAAAATGCCTCATGACGGTATCTGGGTTCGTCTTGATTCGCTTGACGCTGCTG", "fluorescence intensity [a.u.]": 521}
{"Sequence": "GAAAATTGCTAAGCACACATGACTTCATACTTGTAGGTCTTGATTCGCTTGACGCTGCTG", "fluorescence intensity [a.u.]": 1090}
{"Sequence": "GAATGAGTAAATTTGAAGGTGGTGCACAAAGTCTAGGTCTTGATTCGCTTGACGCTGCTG", "fluorescence intensity [a.u.]": 523}
{"Sequence": "TGTACGAAGCTATGCCACGTGACTATAGTAGTTAGGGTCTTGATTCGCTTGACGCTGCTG", "fluorescence intensity [a.u.]": 17000}
{"Sequence": "CCTAACTACTATAGTCACATAAAATAGCTTCGTACAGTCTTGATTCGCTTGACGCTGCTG", "fluorescence intensity [a.u.]": 548}
{"Sequence": "CTATGAGTGGAGTGTCACCTCAGACGACGTGTCTTCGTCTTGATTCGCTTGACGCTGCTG", "fluorescence intensity [a.u.]": 900}
{"Sequence": "TGTACGAAGCTATCAATCACCAGTATAGTAGTTAGGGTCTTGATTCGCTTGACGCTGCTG", "fluorescence intensity [a.u.]": 539}
{"Sequence": "GAAATTGTTTTAATTATCGTGACTTGTTGTTTTTAGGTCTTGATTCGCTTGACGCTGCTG", "fluorescence intensity [a.u.]": 762}
{"Sequence": "CCTAACTACTATAGCATCGTGCAATAGCTTCGTACAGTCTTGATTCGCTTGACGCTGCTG", "fluorescence intensity [a.u.]": 508}
{"data": "Series 4", "target": "RNA binding protein fox-1 homolog 2, RRM domain, GST-SBP tag (RBFOX2, Homo sapiens, UniProt O43251-10, residues 100-194)", "method": "RNA Bind-n-Seq", "molecule type": "RNA", "matrix": "in vitro", "concentration": "365 nM", "setting": "natural RNA segment, single round, ends assumed", "reference": "no-protein control", "reading": "higher = stronger binding", "Residues (chain)": "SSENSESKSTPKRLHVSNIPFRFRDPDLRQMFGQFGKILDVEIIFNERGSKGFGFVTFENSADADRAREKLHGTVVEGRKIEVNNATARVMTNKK"}
{"Sequence": "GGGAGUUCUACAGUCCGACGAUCCAUCAAUAUGUAAAAUUGUUGUUUUGGCUUUAUUUUGAACUCUGGGAGCAAAAGAAAAAUUUUUGUACAUUUUCUUCAUUUAAUCAGAAUGGUUUACAUAUUUCUGCAAAUGGAAUUCUCGGGUGCCAA", "RBNS enrichment (R)": 1.14}
{"Sequence": "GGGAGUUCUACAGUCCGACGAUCGUUGUGGCCCUGGGGCCCAGCCCCAAACUGGGGGCUCUGUAUAUAGCUAUGAAGAAAACACAAAGUGUAUAAAUCUGAGUAUAUAUUUACAUGUCUUUUUAAAAGGGUCGUGGAAUUCUCGGGUGCCAA", "RBNS enrichment (R)": 0.407}
{"Sequence": "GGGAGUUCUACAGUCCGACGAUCGUAAUAAUUGUUCUGCAAAGGUUAAGAAAGCCACUGAGUCACAGUCUUCAUGGACUUUUGGGGUUUCUUAGUGUUGGAUUUUUGGGGUUUCUCAUUUACUUUUUACUCUUUGGAAUUCUCGGGUGCCAA", "RBNS enrichment (R)": 0.5}
{"Sequence": "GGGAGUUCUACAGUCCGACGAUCUCCCGAGCUCCCUCUGGGGACGGCUGGCUCACUGUCUCCAGUUCUCAAUGGCCAACGAAGGUGCUUGGAAACACCUAACCUUGCAAGUUUUACCGCCUUUUGAGGAACACUGGAAUUCUCGGGUGCCAA", "RBNS enrichment (R)": 0.466}
{"Sequence": "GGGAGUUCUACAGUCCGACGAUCAAACACAAAAUGUUGGGUGAAACUGGGAACAACUACUCAGAAGCUCAUUUAUUUGCUUAAAUGGAAAGUGUGGGAGCCACUACCCUCUCUUUUGAUCUGCCAAGGAUUUCUGGAAUUCUCGGGUGCCAA", "RBNS enrichment (R)": 0.318}
{"Sequence": "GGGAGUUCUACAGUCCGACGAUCAUUUGCACAAAAAGAUACCUUAAAAUUUGAAACAUUGCUUUUAAAACUACUUAGCACUUCAGGGCAGAUUUUAGUUUUAUUUUCUAAAGUACUGAGCAGUGAUAUUCUUUUGGAAUUCUCGGGUGCCAA", "RBNS enrichment (R)": 0.462}
{"Sequence": "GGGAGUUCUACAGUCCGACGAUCUCUUUCUCCCCAGCCUUCUCAUUUCCGCCUCUCCAGACACUGCGCCCUCCACCCUCACUCUGCCAUUGUUCCACCUCCUGACCUGCUCCAUCUGAGCUCUCCAGCUGGCCUGGAAUUCUCGGGUGCCAA", "RBNS enrichment (R)": 1.21}
{"Sequence": "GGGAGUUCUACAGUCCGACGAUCAAGACAGGCAAGAGGUCUCUAAGGUGUUCCUUUCCUUUGUCUGAGUGUAUAGUAUUAAGAUGCCUAGAAGAGAGAUGGUUUUGUUCCACUCUUACAGGCACUUUAUAUUUUGGAAUUCUCGGGUGCCAA", "RBNS enrichment (R)": 0.354}
{"Sequence": "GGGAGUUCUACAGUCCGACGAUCAGACAUUCUAUUUGAACACUUGCAAUUACCUAGAUCUAGUUGGCCUUUGGUUGAUAGAUCCUCUGCCUCGGAAUUUCAUUGAGUUUUUUUCUUCCUUGCCUUUGGGUGUCUGGAAUUCUCGGGUGCCAA", "RBNS enrichment (R)": 0.551}
{"note": "Repeated from above (series 3):"}
{"Sequence": "GAAATTGTTTTAATTATCGTGACTTGTTGTTTTTAGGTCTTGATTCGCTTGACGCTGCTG", "fluorescence intensity [a.u.]": 762}
{"Sequence": "CCTAACTACTATAGTCACATAAAATAGCTTCGTACAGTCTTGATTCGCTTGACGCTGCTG", "fluorescence intensity [a.u.]": 548}
{"Sequence": "GAACTTGATTAACGTGATTATACTTTTTAAACCTAGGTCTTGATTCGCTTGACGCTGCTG", "fluorescence intensity [a.u.]": 1110}
{"Sequence": "GAATTCATCGTCGATCATGATGATTATCAGCCGTAGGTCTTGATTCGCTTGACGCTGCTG", "fluorescence intensity [a.u.]": 530}
{"Sequence": "GAATTTATGATTGCTCGAATCACGTTTTTCTTGTAGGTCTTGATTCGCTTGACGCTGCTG", "fluorescence intensity [a.u.]": 2150}
